Measurements pooled from the literature.
Every numbered part comes from another study and shows a few of its results, in no order.

Sample 1
Target: RNA binding protein fox-1 homolog 2, RRM domain, GST-SBP tag (RBFOX2, Homo sapiens, UniProt O43251-10, residues 100-194)
Method: RNA Bind-n-Seq
Form: RNA
Matrix: in vitro
Concentration: 365 nM
Setting: natural RNA segment, single round, ends assumed
Baseline: no-protein control
Direction: higher = stronger binding
Shared flanks, not repeated: GGGAGUUCUACAGUCCGACGAUC … UGGAAUUCUCGGGUGCCAA
Target sequence (chain): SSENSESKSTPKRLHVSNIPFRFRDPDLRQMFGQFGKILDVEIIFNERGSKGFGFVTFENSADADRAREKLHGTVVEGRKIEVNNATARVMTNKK
Sequence	RBNS enrichment (R)
CUAGCUCCUAACUGUCAGGCUGACGGACACCUCCCAGGUCUUGCACCCUCAUGCCAACUCUGCCCCAGGUCCAGGCCUCUGGGGCUGAUCUCAGGGAAGCCCAGCUCUGA	0.358
AAGAUAUAUGCUGCUGUGAAGAUAGAUGAGUGGGUGGACCAACGCUGGGCCCACUGGAUCCUCGACAGGAAGCCACCCUGCGUGGGGACUGCAGGCACACAAAAUAAAAU	0.556
UACAUACAUAAAUAAAUAAAUAAAUAAAUAAAUAAUAGCUUAGGACAUUUGUAACUCUUAGUUAGACUUUCUAUUAAAUGGGACCAAAUGUGUGUAUGGGUGCUGUCAGU	0.651
ACAGCACCUCAGACCCCAAGUGUGUCUGGAGUUCCCUGUCGGCCAGGGAGAGGACACCAGCACCUGGGACCUCCAGAGAAGCCGCACUGAGCGGACUUGUCGACAGAGGG	0.33
CAUUUUAUUUUAGGGGCCAGAUCUAACAUUGUAGUGUCUUUCACCAGAUAGACUUCUACUGUUUCAUCAAACUCCCUUCUUAACUAGACCUAGACUUUCUACUCCAAUCA	0.2
ACUGGACCUGCCCCACCCUCAGAUUCCUUAAAGGAUGAAGAGUGUGCUGUACACUCAGCAUAUGUGCCUCUUGUAUGCAAGGACUACUGAUUGAAGUCUGUUUUGCUGUG	0.34
UUAGCCUGCUUCUCACAGGACACUUGUGACAGCAGAGCUGGGGGUGGUUUUCCAGCCUCGACCCACUGCGCUCACCUGGCACUGCCCCACUUUCUUCACCCUGGGUCUGU	0.282
ACACCCGCUGAUCCUUUAACAAGGAUUUCUGGCAGGAAACUCACAAAAAGGAGAACUGAAAAUUUAGACAUACAGUUGGCCAUUGUAAAAAACAUCAGUUUCCUCUCAUA	0.38

Sample 2
Target: Interferon regulatory factor 5, full length, phosphomimetic (IRF5, Homo sapiens, UniProt Q13568-2, residues 1-514, S451D/S453D/S456D/S462D)
Method: protein-binding microarray
Form: double-stranded DNA, one strand shown
Matrix: in vitro
Concentration: 940 nM top
Setting: 60-bp whole probe
Together with: salmon DNA 0.4 mg/ml
Baseline: random background probes
Direction: higher = stronger binding
Shared flanks, not repeated: GCCTAGCAC … GTCTTGATTCGCTTGACGCTGCTG
Sequence	fitted relative affinity [z-score]
TTAGGATTCGGTATCGGTTAGTGCTAG	6.81
TTAGATATCAGTTTCGTTTAGTGCTAG	5.87
GACGGATTGCTTATCCTGACGTGCTAG	-0.56
GACGGACTGCGGTATCGGGACGTGCTA	0.168
GGAGTTTTCAGTCCTGGGATGTGCTAG	0.191
GACGATATCGGTCTCGGGACGTGCTAG	1.33
TTAGATATCGGGACTGGTTTAGTGCTA	0.229
AAGCCAGGACGAGCTCGCCTGTGCTAG	-0.74

Sample 3
Target: Replicase polyprotein 1ab, polymerase (rep, Severe acute respiratory syndrome coronavirus 2, UniProt P0DTD1)
Effect on: enzyme activity
Action: inhibitor
Concentration: 20 µM
SMILES	inhibition [%]
Nc1ncnc2c1ncn2C1CCCO1 (stereo not drawn)	3.04
C[C@@H]1COCCN1c1cc(C2(S(C)(=O)=O)CC2)nc(-c2cccc3[nH]ccc23)n1	1.27
CC(=O)c1ccc2c(c1)[C@H](NC(=O)c1ccc(F)c(Cl)c1)[C@H](O)C(C)(C)O2	1.19
C[C@H](c1ccc2ccc(O[C@H]3CC[C@@H](C(F)(F)F)CC3)c(C(F)(F)F)c2c1)N1C2CCC1CC(C(=O)O)C2 (stereo partly drawn)	-3.74
COC(=O)N[C@@H](C)CNc1nccc(-c2cn(C(C)C)nc2-c2cc(Cl)cc(NS(C)(=O)=O)c2F)n1	-1.32
S=C(NCCc1ccccn1)Nc1ccc(Br)cn1	1.64
CCOc1ccc2nc(SCCN3CCOCC3)[nH]c2c1	-4.8
Cc1nc(Nc2ncc(C(=O)Nc3c(C)cccc3Cl)s2)cc(N2CCN(CCO)CC2)n1	9.58
NCCCCCC(O)(P(=O)(O)O)P(=O)(O)O	0.19
NCC(O)(CS(=O)(=O)O)c1ccc(Cl)cc1 (stereo not drawn)	-5.98
CC(=O)Oc1ccccc1C(=O)O	4.49
CN(c1nccc(=O)[nH]1)C1CCN(c2nc3ccccc3n2Cc2ccc(F)cc2)CC1	-7.93
O=C(O)Cc1cccc(OCCCN(Cc2cccc(C(F)(F)F)c2Cl)CC(c2ccccc2)c2ccccc2)c1	6.21
Cc1cc(C)c(CNC(=O)c2cc(-c3ccc(N4CCN(C)CC4)nc3)cc3c2c(C)cn3C(C)C)c(=O)[nH]1	-1.04
CCN[C@H]1CN(CCCOC)S(=O)(=O)c2sc(S(N)(=O)=O)cc21	-3.13
C[C@H]1CNCCCN1S(=O)(=O)c1cccc2cncc(F)c12	2.61
O=C(NOCCO)c1ccc2cncn2c1Nc1ccc(I)cc1F	5.05
CN[C@H](C(=O)N[C@H](C(=O)N(C)[C@H](/C=C(\C)C(=O)O)C(C)C)C(C)(C)C)C(C)(C)c1ccccc1	-9.01
Cc1cccc(C)c1NC(=O)c1ccccc1C(=O)O	-15.4
COc1cccc(NC(=O)/C=C/c2ccc(Cl)cc2)c1	-1.36
O=C(Nc1cccc(Cl)c1)c1ccccn1	-2.42
C=CC(=O)Nc1cccc(Nc2nc(Nc3ccc(N4CCN(C(C)=O)CC4)cc3OC)ncc2C(F)(F)F)c1	1.34
CC(C)=CCOc1ccc(/C=C/C(=O)c2ccc(OCC=C(C)C)cc2OCC(=O)O)cc1	5.54
CS/C(N)=C(C#N)/C(C#N)=C(\N)SC	2.74
CC(=O)SCC(Cc1ccccc1)C(=O)NCC(=O)OCc1ccccc1 (stereo not drawn)	-1.02

Sample 4
Cell line: HEK-293T
Effect on: pseudovirus infection
Method: FDA-approved drug library screen
Organism: VSV pseudotyped with SARS-CoV-2 spike
Concentration: 10 µM
Time: 16 h
Baseline: vehicle-treated
Structure (SMILES)	GFP-positive cells
CS(=O)(=O)CCNCc1ccc(-c2ccc3ncnc(Nc4ccc(OCc5cccc(F)c5)c(Cl)c4)c3c2)o1	56.5%
Cn1c(=O)c2c(ncn2CC(O)CO)n(C)c1=O (stereo not drawn)	70.5%
C#CCN(C)Cc1ccccc1	92%
C[C@@H]1O[C@@H](OC[C@H]2O[C@@H](Oc3c(-c4ccc(O)c(O)c4)oc4cc(O)cc(O)c4c3=O)[C@H](O)[C@@H](O)[C@@H]2O)[C@H](O)[C@H](O)[C@H]1O	108%

Sample 5
Target: Replicase polyprotein 1ab, main protease (rep, Severe acute respiratory syndrome coronavirus 2, UniProt P0DTD1)
Effect on: enzyme activity
Action: inhibitor
Concentration: 20 µM
Setting: primary screen
Structure (SMILES)	inhibition
C=C1C(=O)O[C@H]2[C@H]1CC/C(C)=C/CC[C@@]1(C)O[C@@H]21	56.5%
Sc1nnc(Nc2ccccc2)s1	101%
O=[N+]([O-])c1ccc(O)c2ncccc12	27.4%
CNC(=O)ON(C(C)=O)C(=O)NC	96.4%

Sample 6
Target: Fragile X messenger ribonucleoprotein 1, C-terminal low-complexity region (Fmr1, Mus musculus, UniProt P35922)
Method: RNA Bind-n-Seq
Form: RNA
Matrix: in vitro
Concentration: 200 nM
Setting: whole 134-nt RNA, ends assumed
Together with: 150 mM LiCl
Baseline: input library
Direction: higher = stronger binding
Each molecule: 7-deaza-guanosine replaces G
Shared flanks, not repeated: GGGAGUUCUACAGUCCGACGAUC … UGGAAUUCUCGGGUGUCAAGG
Sequence	log2 enrichment
AAGUCCUGUGCUACACAUCGUAUGUACCGAAUCGGGUUUGGGAAAAAGGGUUUGGGAAAGUAUUAUGUUACGCCGUUCGGAUCUGCACUU	-2.77
GUCCUGUGCUACACAUCGUAUGUACCGAAUCGGGGUUUGGGGUUUUUGGGGAAAGGGGAAAGUAUUAUGUUACGCCGUUCGGAUCUGCAC	-0.0831
UGGGAGGUGGAUUUUGUUUAUUUUUUUAGCUCAUUUCCAGGGGUGGGAAUUUUUUUUUAAUAUGUGUCAUGAAUAUAGUUGUUUUUGAAA	0.0943
AAGUCCUGUGCUACACAUCGUAUGUACCGAAUCGGGCCCCGGCCCCGGGCCCCGGGGAAAGUAUUAUGUUACGCCGUUCGGAUCUGCACU	-2.75
CAAGUCCUGUGCUACACAUCGUAUGUACCGAAUCGGGGAAAGGGAAAGGGAAAGGGAAAGUAUUAUGUUACGCCGUUCGGAUCUGCACUU	-0.807

Repeated from above (sample 3):
SMILES	inhibition [%]
Cc1cc(C)c(CNC(=O)c2cc(-c3ccc(N4CCN(C)CC4)nc3)cc3c2c(C)cn3C(C)C)c(=O)[nH]1	-1.04
CCN[C@H]1CN(CCCOC)S(=O)(=O)c2sc(S(N)(=O)=O)cc21	-3.13
C[C@H]1CNCCCN1S(=O)(=O)c1cccc2cncc(F)c12	2.61
